# Measured values from different studies.
# Lines come from different studies, so protocols differ. Numbers after ± are the reported error.
# Cytochrome P450 2A13: Cytochrome P450 2A13 (Homo sapiens, UniProt Q16696)
# UniProt Q16696, sequence (whole entry, looked up): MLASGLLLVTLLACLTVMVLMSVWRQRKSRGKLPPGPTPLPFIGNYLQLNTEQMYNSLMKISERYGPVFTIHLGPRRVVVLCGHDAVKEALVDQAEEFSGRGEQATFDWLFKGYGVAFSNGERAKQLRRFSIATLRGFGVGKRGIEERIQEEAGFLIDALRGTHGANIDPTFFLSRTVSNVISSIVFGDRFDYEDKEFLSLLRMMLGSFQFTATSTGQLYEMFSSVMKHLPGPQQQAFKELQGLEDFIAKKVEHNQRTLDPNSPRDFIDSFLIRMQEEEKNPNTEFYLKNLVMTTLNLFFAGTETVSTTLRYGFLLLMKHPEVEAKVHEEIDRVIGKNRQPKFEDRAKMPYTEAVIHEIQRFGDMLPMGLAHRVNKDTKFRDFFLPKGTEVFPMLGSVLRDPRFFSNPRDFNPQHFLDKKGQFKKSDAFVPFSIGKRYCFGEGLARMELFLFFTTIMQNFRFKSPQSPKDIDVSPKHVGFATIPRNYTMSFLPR
# ACE2: Angiotensin-converting enzyme 2 (ACE2, Homo sapiens, UniProt Q9BYF1)
# UniProt Q9BYF1, sequence (whole entry, looked up): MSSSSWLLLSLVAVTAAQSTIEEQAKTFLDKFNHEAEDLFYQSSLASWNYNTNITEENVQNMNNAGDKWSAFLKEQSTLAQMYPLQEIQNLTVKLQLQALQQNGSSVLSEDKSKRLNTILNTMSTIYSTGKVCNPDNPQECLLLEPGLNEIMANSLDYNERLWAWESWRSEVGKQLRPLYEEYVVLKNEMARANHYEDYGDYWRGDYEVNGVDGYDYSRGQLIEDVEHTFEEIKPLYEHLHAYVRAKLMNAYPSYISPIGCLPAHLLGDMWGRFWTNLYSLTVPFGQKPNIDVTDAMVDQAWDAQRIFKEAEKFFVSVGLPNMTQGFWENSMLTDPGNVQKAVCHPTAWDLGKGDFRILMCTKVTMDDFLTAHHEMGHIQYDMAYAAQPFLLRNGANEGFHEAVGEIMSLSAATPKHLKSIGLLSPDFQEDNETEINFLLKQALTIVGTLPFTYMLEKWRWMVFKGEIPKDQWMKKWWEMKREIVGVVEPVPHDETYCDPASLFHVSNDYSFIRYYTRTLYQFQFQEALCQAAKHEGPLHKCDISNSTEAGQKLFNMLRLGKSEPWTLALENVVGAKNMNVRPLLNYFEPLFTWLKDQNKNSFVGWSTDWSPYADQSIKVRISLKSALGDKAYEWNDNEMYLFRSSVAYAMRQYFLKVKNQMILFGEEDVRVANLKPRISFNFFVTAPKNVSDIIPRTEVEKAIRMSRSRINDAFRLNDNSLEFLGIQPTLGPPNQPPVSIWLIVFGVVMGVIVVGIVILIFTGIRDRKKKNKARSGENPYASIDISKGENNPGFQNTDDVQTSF
# UniProt Q6B856, sequence (whole entry, looked up): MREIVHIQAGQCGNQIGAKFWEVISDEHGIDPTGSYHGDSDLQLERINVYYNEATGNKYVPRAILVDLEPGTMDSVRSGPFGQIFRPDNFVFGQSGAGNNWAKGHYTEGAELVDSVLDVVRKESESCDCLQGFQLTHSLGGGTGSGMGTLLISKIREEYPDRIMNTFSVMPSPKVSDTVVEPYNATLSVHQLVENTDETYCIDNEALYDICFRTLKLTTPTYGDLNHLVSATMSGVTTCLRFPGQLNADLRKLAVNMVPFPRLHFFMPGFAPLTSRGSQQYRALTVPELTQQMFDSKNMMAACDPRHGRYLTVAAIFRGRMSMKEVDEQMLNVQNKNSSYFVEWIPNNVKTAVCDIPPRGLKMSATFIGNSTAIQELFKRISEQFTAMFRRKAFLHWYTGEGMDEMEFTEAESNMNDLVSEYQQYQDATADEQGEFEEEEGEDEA
# UniProt Q14145, sequence (whole entry, looked up): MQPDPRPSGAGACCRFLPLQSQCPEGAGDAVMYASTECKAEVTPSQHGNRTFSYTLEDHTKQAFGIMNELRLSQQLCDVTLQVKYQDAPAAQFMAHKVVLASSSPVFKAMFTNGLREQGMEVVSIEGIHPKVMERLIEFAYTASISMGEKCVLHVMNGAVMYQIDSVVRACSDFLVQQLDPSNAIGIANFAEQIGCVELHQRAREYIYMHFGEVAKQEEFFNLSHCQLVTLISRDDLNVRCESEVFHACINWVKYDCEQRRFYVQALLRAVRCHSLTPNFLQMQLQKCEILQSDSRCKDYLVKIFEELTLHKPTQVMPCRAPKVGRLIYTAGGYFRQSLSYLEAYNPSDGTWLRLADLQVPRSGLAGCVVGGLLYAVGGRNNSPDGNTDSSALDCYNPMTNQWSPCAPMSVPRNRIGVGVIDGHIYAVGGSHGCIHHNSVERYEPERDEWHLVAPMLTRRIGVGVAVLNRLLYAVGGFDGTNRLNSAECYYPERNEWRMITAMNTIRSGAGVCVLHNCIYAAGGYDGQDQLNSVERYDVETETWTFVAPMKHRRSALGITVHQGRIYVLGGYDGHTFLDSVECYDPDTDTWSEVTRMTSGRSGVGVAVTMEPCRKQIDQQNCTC
# UniProt P05067, sequence (whole entry, looked up): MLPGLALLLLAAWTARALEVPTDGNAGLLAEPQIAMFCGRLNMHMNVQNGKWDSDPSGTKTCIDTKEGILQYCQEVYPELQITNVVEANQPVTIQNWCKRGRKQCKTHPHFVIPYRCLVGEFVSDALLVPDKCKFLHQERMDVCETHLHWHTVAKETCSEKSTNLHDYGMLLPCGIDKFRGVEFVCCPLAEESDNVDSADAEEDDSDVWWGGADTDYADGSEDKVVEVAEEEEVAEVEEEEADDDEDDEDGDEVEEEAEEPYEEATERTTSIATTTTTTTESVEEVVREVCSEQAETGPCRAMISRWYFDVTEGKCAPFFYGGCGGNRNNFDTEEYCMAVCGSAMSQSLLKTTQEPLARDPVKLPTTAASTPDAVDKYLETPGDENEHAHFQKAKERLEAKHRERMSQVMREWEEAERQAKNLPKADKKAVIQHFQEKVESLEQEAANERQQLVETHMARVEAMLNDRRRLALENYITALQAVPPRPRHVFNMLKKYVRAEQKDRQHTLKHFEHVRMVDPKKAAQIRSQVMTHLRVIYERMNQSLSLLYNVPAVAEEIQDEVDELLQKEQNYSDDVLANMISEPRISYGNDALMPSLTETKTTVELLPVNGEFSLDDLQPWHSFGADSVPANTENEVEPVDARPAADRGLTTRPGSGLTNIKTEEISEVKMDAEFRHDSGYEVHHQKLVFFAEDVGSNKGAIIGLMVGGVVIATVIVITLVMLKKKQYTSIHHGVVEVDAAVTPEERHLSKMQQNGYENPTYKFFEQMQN
# UniProt P17988, sequence (whole entry, looked up): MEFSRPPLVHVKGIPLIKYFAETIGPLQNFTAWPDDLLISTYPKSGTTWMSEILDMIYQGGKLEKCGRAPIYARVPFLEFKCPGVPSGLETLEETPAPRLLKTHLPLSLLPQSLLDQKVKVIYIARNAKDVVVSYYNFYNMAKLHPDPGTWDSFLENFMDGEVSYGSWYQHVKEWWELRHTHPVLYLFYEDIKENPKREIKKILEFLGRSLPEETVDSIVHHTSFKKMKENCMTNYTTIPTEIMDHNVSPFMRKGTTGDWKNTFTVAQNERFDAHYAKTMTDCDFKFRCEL
# UniProt P0DMV8, sequence (whole entry, looked up): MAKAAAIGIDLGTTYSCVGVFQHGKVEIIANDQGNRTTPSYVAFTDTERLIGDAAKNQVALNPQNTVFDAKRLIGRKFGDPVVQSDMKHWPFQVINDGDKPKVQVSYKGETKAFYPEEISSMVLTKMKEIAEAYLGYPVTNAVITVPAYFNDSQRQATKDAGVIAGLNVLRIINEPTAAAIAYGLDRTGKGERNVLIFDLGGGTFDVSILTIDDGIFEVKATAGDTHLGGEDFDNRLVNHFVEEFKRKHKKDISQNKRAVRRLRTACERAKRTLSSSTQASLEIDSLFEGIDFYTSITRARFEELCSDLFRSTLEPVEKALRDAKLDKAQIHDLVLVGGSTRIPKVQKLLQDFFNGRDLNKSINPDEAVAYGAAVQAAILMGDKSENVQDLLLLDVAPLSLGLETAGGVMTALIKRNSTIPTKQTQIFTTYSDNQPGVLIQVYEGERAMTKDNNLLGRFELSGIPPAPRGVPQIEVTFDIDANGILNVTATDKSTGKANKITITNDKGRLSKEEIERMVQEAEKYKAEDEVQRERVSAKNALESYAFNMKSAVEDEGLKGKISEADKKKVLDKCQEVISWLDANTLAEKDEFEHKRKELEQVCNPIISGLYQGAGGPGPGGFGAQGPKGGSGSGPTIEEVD
# UniProt Q06151, sequence (whole entry, unmodified, looked up): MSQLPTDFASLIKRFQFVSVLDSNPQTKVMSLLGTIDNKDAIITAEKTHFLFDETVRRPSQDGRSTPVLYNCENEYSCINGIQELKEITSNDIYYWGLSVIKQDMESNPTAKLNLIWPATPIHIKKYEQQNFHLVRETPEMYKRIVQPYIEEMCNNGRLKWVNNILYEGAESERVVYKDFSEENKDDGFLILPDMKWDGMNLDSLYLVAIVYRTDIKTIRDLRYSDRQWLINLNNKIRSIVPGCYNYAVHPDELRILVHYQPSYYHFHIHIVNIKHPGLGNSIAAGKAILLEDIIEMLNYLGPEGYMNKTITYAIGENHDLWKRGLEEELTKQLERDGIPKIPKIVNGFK
# UniProt Q9WYT0, sequence (whole entry, looked up): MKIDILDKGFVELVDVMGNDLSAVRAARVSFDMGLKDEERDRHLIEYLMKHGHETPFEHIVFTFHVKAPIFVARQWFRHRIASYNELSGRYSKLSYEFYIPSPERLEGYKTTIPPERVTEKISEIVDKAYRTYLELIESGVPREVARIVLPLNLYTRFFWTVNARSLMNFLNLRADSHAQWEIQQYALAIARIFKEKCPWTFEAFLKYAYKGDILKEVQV
# UniProt P69905, sequence (whole entry, looked up): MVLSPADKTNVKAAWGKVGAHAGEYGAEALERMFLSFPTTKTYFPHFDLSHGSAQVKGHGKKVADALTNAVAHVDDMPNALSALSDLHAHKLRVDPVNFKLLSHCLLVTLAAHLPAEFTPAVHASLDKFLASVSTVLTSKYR
Molecule,target,test,system,conditions,Kd
OC[C@H]1O[C@@H](O[C@H]2[C@H](O)[C@@H](O)[C@H](O)O[C@@H]2CO)[C@H](O)[C@@H](O)[C@H]1O,"Lectin (Erythrina crista-galli, UniProt P83410)",BLI competition,,"solution Kd, with: LacNAc-biotin biosensor",320 µM
C=CC1=C(C)c2cc3[nH]c(cc4nc(cc5[nH]c(cc1n2)c(C)c5C=C)C(C)=C4CCC(=O)O)c(CCC(=O)O)c3C.[Fe+3],"Heme-binding lipoprotein HupD (Listeria monocytogenes, UniProt Q8Y4K7)","binding, Trp fluorescence quenching",,His-tagged protein,0.036 ± 0.011 µM
CCSCCNC(=O)CCNC(=O)[C@H](O)C(C)(C)COP(=O)(O)OP(=O)(O)OC[C@H]1O[C@@H](n2cnc3c(N)ncnc32)[C@H](O)[C@@H]1OP(=O)(O)O,"Chloramphenicol acetyltransferase (cat, Escherichia coli, UniProt P62577)","ligand, native ESI-MS",,"third ligand binding, gas phase, with: 200 mM ammonium acetate",21 ± 8 µM
CC(C)C[C@@H]1NC(=O)[C@H](Cc2c[nH]cn2)NC(=O)[C@H](Cc2c[nH]c3ccccc23)NC(=O)[C@H](C)NC(=O)[C@@H]2CSSC[C@H](NC(=O)[C@H](Cc3c[nH]c4ccccc34)NC(=O)[C@H](C(C)C)NC(=O)[C@H](CC(C)C)NC(=O)[C@H](CCC(=O)O)NC(=O)CNC1=O)C(=O)N[C@@H]([C@@H](C)O)C(=O)N[C@H](C(N)=O)CSSC[C@H](NC(=O)CCOCCOCCOCCOCCOCCOCCNC(=O)CC[C@H](NC(=O)c1ccc(NCc3cnc4nc(N)[nH]c(=O)c4n3)cc1)C(=O)O)C(=O)N[C@@H](CC(=O)O)C(=O)N2,"Immunoglobulin heavy constant gamma 1, Fc region (IGHG1, Homo sapiens, UniProt P01857)","binding, surface plasmon resonance",,"pH 7.4, with: immobilised trastuzumab",0.0061 µM
CCCCCCCCCCO,potassium channel,steady-state block,Doryteuthis pealeii,"internal application, with: membrane potential +100 mV",938 µM
CCCn1c(=O)[nH]c2nc(-c3ccc(S(=O)(=O)O)cc3)[nH]c2c1=O,"ADORA2A (Homo sapiens, UniProt P29274, A54L/K122A/T88A/V239A)","binding, antagonist, surface plasmon resonance",,"25 °C, 1% DMSO",0.81 µM
C#Cc1cc2ccccc2c2ccccc12,Cytochrome P450 2A13,"binding, absorbance",,pH 7.4,0.95 µM
CCCCCCCCCC[N+](CC)(CC)CC,potassium channel,steady-state block,Doryteuthis pealeii,"internal application, with: membrane potential +100 mV",3.7 µM
O=C1c2cccc(O)c2C(=O)c2c(O)cc(CO)cc21,ACE2,"binding, SPR",,,6.02 µM
C=CC1=C(C)c2cc3[nH]c(cc4nc(cc5[nH]c(cc1n2)c(C)c5C=C)C(C)=C4CCC(=O)O)c(CCC(=O)O)c3C.[Fe+3],"Kelch protein K13 (Plasmodium falciparum, UniProt Q8IDQ2, R539T)",,,,0.131 ± 0.015 µM
CN[C@H]1C(=O)N[C@@H]2Cc3ccc(cc3)Oc3cc4cc(c3O[C@@H]3O[C@H](C(=O)O)[C@@H](O)[C@H](O)[C@H]3NC(=O)CCCCCCCCC(C)C)Oc3ccc(cc3Cl)[C@@H](O)[C@@H]3NC(=O)[C@H](NC(=O)[C@@H]4NC(=O)[C@@H](NC2=O)c2cc(cc(O)c2Cl)Oc2cc1ccc2O)c1ccc(O)c(c1)-c1c(O[C@H]2O[C@H](CO)[C@@H](O)[C@H](O)[C@@H]2O)cc(O)cc1[C@@H](C(=O)NCCCN(C)C)NC3=O,MBP-Lys-D-Ala-D-Ala fusion,"binding, SPR",,25 °C,0.13 ± 0.02 µM
CC[C@H](C)[C@H](NC(=O)[C@@H]1CCCN1C(=O)[C@@H](NC(=O)[C@H](CC(=O)O)NC(=O)[C@@H](NC(=O)[C@@H](N)CC(=O)O)[C@@H](C)O)[C@@H](C)O)C(=O)N[C@H](C(=O)N[C@@H](Cc1ccc(O)cc1)C(=O)N[C@@H](CC(N)=O)C(=O)N[C@@H](CC(=O)O)C(=O)N[C@@H](CCCNC(=N)N)C(=O)N[C@@H](CC(=O)O)C(=O)N[C@@H](CC(C)C)C(=O)N[C@@H](CC(C)C)C(=O)N[C@@H](CC(=O)O)C(=O)O)C(C)C,"HSPA1A (Homo sapiens, UniProt P0DMV8)","binding, SPR",,pH 7.4,782 µM
CC[C@@H](/C=C(/C)[C@H]1C[C@H](OC)C[C@@H](O)C(C)(C)[C@]2(O)O[C@H](C[C@H](OC)[C@@H](O)C(=O)O1)C[C@H](OC)[C@@H]2O)CO,"Tubulin beta chain, microtubules (Bos taurus, UniProt Q6B856)","binding, Scatchard",bovine tubulin polymer,"pH 6.6, 37 °C",0.35 µM
CSCC[C@H](NC(=O)[C@H](CCC(N)=O)NC(=O)[C@H](CC(C)C)NC(=O)[C@H](CO)NC(=O)[C@H](CCC(N)=O)NC(=O)[C@H](CC(C)C)NC(=O)[C@H](CCC(=O)O)NC(=O)CNC(=O)[C@@H](NC(=O)[C@H](CO)NC(=O)[C@@H]1CCCN1C(=O)[C@H](CC(=O)O)NC(=O)[C@@H](NC(=O)[C@H](CCC(=O)O)NC(=O)[C@H](CCCCN)NC(=O)[C@H](CO)NC(=O)[C@H](CO)NC(=O)[C@H](CC(C)C)NC(C)=O)C(C)C)[C@@H](C)O)C(=O)N1CCC[C@H]1C(=O)N[C@@H](CCC(=O)O)C(N)=O,"Kelch-like ECH-associated protein 1, Kelch domain (KEAP1, Homo sapiens, UniProt Q14145)",isothermal titration calorimetry,Kelch domain,"pH 7, 25 °C",1.3 ± 0.02 µM
CCCCCCCCCC[N+](C)(C)c1ccccc1,potassium channel,steady-state block,Doryteuthis pealeii,"internal application, with: membrane potential +100 mV",13.3 µM
CCc1nc2ccccc2cc1C(=O)O,HIV-1 frameshift-stimulating RNA stem-loop,fluorescence titration,,"pH 7.2, 25 °C, with: 20-fold yeast tRNA",no binding
cGMP,"Potassium/sodium hyperpolarization-activated cyclic nucleotide-gated channel 2, C-linker/CNBD (Hcn2, Mus musculus, UniProt O88703, E582A)","binding, ITC",,"E582A mutant, single-site model",690 µM
CC[N+](CC)(CC)CC(=O)Nc1c(C)cccc1C,"sodium channel (rat brain), batrachotoxin-modified","open channel block, blocker, planar lipid bilayer, single channel",,"low affinity open state, +60 mV",7500 µM
Nc1ncnc2c1ncn2[C@@H]1O[C@H](COP(=O)(O)O)[C@@H](OP(=O)(O)O)[C@H]1O,"Sult1a1 (Rattus norvegicus, UniProt P17988)","binding, TNP-AMP displacement",,enzyme pretreated with GSSG,5.1 ± 0.4 µM
O=c1ccn([C@H]2C[C@H](O)[C@@H](COP(=O)(O)O)O2)c(=O)[nH]1,"thyX (Thermotoga maritima, UniProt Q9WYT0)",,,,0.03 ± 0.02 µM
C[C@H](CNc1ccc([N+](=O)[O-])c2nonc12)[C@H]1CC[C@H]2[C@@H]3CC=C4C[C@@H](O)CC[C@]4(C)[C@H]3CC[C@]12C,"Sterol carrier protein 2 (Aedes aegypti, UniProt Q86PR3)",binding,,no competitor,0.99 µM
C/C=C/C[C@@H](C)C(=O)[C@H]1C(=O)N[C@@H](C(C)C)C(=O)N(C)CC(=O)N(C)[C@@H](CC(C)C)C(=O)N[C@@H](C(C)C)C(=O)N(C)[C@@H](CC(C)C)C(=O)N[C@@H](C)C(=O)N[C@H](C)C(=O)N(C)[C@@H](CC(C)C)C(=O)N(C)[C@@H](CC(C)C)C(=O)N(C)[C@@H](C(C)C)C(=O)N1C,Rgg3 Streptococcus pyogenes,competition fluorescence polarization,,with: FITC-SHP2-C8 10 nM,0.55 µM
CCCCCCCCCCCCCCCC(=O)N[C@@H](CCSC)C(=O)O,"Bifunctional cytochrome P450/NADPH--P450 reductase, heme domain (cyp102A1, Bacillus megaterium, UniProt P14779)","substrate binding, substrate, UV-vis spectral titration",,"pH 7.4, room temperature, wild-type heme domain",< 0.03 µM
CC(=O)N[C@@H](C)C(=O)N[C@@H](Cc1ccccc1)C(=O)N[C@@H](CCCNC(=N)N)C(=O)N[C@@H](C)C(=O)N[C@@H](CC(=O)O)C(=O)N[C@H](C(=O)N[C@@H](CCCNC(=N)N)C(=O)N[C@@H](C)C(=O)N[C@@H](CCC(=O)O)C(=O)N[C@@H](CCCNC(=N)N)C(=O)N[C@@H](C)C(=O)N[C@@H](CCC(=O)O)C(N)=O)C(C)C,"Amyloid-beta precursor protein, Aβ40 fibrils (APP, Homo sapiens, UniProt P05067)","binding to Aβ40 fibrils, fluorescence polarization",,"24 h, pH 7.4, 25 °C, with: 100 µM Aβ40 fibrils",25.1 µM
bleomycin,"Peptide antibiotic transporter SbmA (sbmA, Escherichia coli, UniProt P0AFY6)",microscale thermophoresis,nanodiscs,room temperature,0.088 ± 0.014 µM
CCCCCCCCC[N+](CC)(CC)CC,potassium channel,steady-state block,Doryteuthis pealeii,"internal application, with: membrane potential +100 mV",4.1 µM
O=C(O)c1cc(O)c2c(c1)C(=O)c1cccc(O)c1C2=O,ACE2,"binding, SPR",,,33.3 µM
CNc1ccccc1C(=O)O[C@H]1[C@@H](O)[C@H](n2cnc3c(N)ncnc32)O[C@@H]1COP(=O)(O)OP(=O)(O)O,"Serine/threonine-protein kinase ULK4 (ULK4, Homo sapiens, UniProt Q96C45)","nucleotide binding, FRET",,without Mg2+,4.69 µM
CC#Cc1cc2ccccc2c2ccccc12,Cytochrome P450 2A13,"binding, absorbance",,pH 7.4,6.4 µM
C[n+]1cn([C@@H]2O[C@H](COP(=O)(O)OP(=O)([O-])OP(=O)(O)OC[C@H]3O[C@@H](n4cnc5c(=O)[nH]c(N)nc54)[C@H](O)[C@@H]3O)[C@@H](O)[C@H]2O)c2nc(N)[nH]c(=O)c21,"m7GpppX diphosphatase (DCS1, Saccharomyces cerevisiae, UniProt Q06151, H268N)",isothermal titration calorimetry,,"25 °C, open site, H268N",324 µM
O=Cc1ccc(CO)o1,"Hemoglobin subunit alpha, with beta chain (HBA1, Homo sapiens, UniProt P69905)","steady-state binding, cation-exchange HPLC",,37 °C,370 µM
N#Cc1ccc(/C=C/C(=O)O)cc1,acetylcholine binding protein (Bulinus truncatus),"binding, scintillation proximity",,with: 5 nM [3H]epibatidine,2.63 µM

# Some of these lines once more:
Molecule,target,test,system,conditions,Kd
C=CC1=C(C)c2cc3[nH]c(cc4nc(cc5[nH]c(cc1n2)c(C)c5C=C)C(C)=C4CCC(=O)O)c(CCC(=O)O)c3C.[Fe+3],"Kelch protein K13 (Plasmodium falciparum, UniProt Q8IDQ2, R539T)",,,,0.131 ± 0.015 µM
CN[C@H]1C(=O)N[C@@H]2Cc3ccc(cc3)Oc3cc4cc(c3O[C@@H]3O[C@H](C(=O)O)[C@@H](O)[C@H](O)[C@H]3NC(=O)CCCCCCCCC(C)C)Oc3ccc(cc3Cl)[C@@H](O)[C@@H]3NC(=O)[C@H](NC(=O)[C@@H]4NC(=O)[C@@H](NC2=O)c2cc(cc(O)c2Cl)Oc2cc1ccc2O)c1ccc(O)c(c1)-c1c(O[C@H]2O[C@H](CO)[C@@H](O)[C@H](O)[C@@H]2O)cc(O)cc1[C@@H](C(=O)NCCCN(C)C)NC3=O,MBP-Lys-D-Ala-D-Ala fusion,"binding, SPR",,25 °C,0.13 ± 0.02 µM
CC[C@H](C)[C@H](NC(=O)[C@@H]1CCCN1C(=O)[C@@H](NC(=O)[C@H](CC(=O)O)NC(=O)[C@@H](NC(=O)[C@@H](N)CC(=O)O)[C@@H](C)O)[C@@H](C)O)C(=O)N[C@H](C(=O)N[C@@H](Cc1ccc(O)cc1)C(=O)N[C@@H](CC(N)=O)C(=O)N[C@@H](CC(=O)O)C(=O)N[C@@H](CCCNC(=N)N)C(=O)N[C@@H](CC(=O)O)C(=O)N[C@@H](CC(C)C)C(=O)N[C@@H](CC(C)C)C(=O)N[C@@H](CC(=O)O)C(=O)O)C(C)C,"HSPA1A (Homo sapiens, UniProt P0DMV8)","binding, SPR",,pH 7.4,782 µM
CC[C@@H](/C=C(/C)[C@H]1C[C@H](OC)C[C@@H](O)C(C)(C)[C@]2(O)O[C@H](C[C@H](OC)[C@@H](O)C(=O)O1)C[C@H](OC)[C@@H]2O)CO,"Tubulin beta chain, microtubules (Bos taurus, UniProt Q6B856)","binding, Scatchard",bovine tubulin polymer,"pH 6.6, 37 °C",0.35 µM
CSCC[C@H](NC(=O)[C@H](CCC(N)=O)NC(=O)[C@H](CC(C)C)NC(=O)[C@H](CO)NC(=O)[C@H](CCC(N)=O)NC(=O)[C@H](CC(C)C)NC(=O)[C@H](CCC(=O)O)NC(=O)CNC(=O)[C@@H](NC(=O)[C@H](CO)NC(=O)[C@@H]1CCCN1C(=O)[C@H](CC(=O)O)NC(=O)[C@@H](NC(=O)[C@H](CCC(=O)O)NC(=O)[C@H](CCCCN)NC(=O)[C@H](CO)NC(=O)[C@H](CO)NC(=O)[C@H](CC(C)C)NC(C)=O)C(C)C)[C@@H](C)O)C(=O)N1CCC[C@H]1C(=O)N[C@@H](CCC(=O)O)C(N)=O,"Kelch-like ECH-associated protein 1, Kelch domain (KEAP1, Homo sapiens, UniProt Q14145)",isothermal titration calorimetry,Kelch domain,"pH 7, 25 °C",1.3 ± 0.02 µM
